Results of several laboratories.
Lines come from different studies, so protocols differ.
Cell line: Jurkat

SMILES | test | conditions | scale | endpoint | result
CCCCCCCCCCCCCC(=S)NCCCC[C@H](NS(C)(=O)=O)C(=O)N[C@H](C)C(=O)N[C@@H](CCCNC(=N)N)C(N)=O | cell growth or viability, MTT | 72 h | – | EC50 | 7.2 to 14.7 µM
COc1cc(-c2cn(C)c(=O)c3cnccc23)cc(OC)c1CN(C)C | cell growth or viability | 7 days | – | EC50 | > 10 µM
Cc1[nH][n+]([Pd-2]([Cl])([Cl])[n+]2[nH]c(C)c(CSCc3ccccc3)c2C)c(C)c1CSCc1ccccc1 | cytotoxicity | – | relative to: IC50 HEK293 over IC50 Jurkat | selectivity index | 2.2
N#Cc1c(N)nc2c(c1-c1ccc[nH]1)Cc1cc(O)ccc1-2 | cell growth or viability, ATP luminescence | – | – | IC50 | 18.7 µM
CCCCCCCCCCCCNC(=S)NCCCC[C@H](NC(=O)OCc1ccccc1)C(=O)N[C@@H](Cc1c[nH]c2ccccc12)C(=O)NC(C)C | cell growth or viability, MTT | 72 h | – | EC50 | 34.3 to 45.4 µM
NC(=O)c1ccc(-c2ccccc2Cl)c2c3c([nH]c12)CCC(N)C3 (stereo not shown) | cell growth or viability | 96 h | – | IC50 | 0.0209 µM
Cc1[nH][n+]([Pd-2]([Cl])([Cl])[n+]2[nH]c(C)c(CSC3CCCCC3)c2C)c(C)c1CSC1CCCCC1 | cytotoxicity | – | relative to: IC50 HEK293 over IC50 Jurkat | selectivity index | 1.7
N#Cc1c(N)nc2c(c1-c1ccc(CO)o1)Cc1cc(O)ccc1-2 | cell growth or viability, ATP luminescence | – | – | IC50 | 6.3 µM
CCCCCCCCCCCCCC(=S)NCCCC[C@H](NC(=O)OCc1ccccc1)C(=O)Nc1ccccc1 | cell growth or viability, MTT | 72 h | – | EC50 | 7.27 to 16 µM
Cc1[nH][n+]([Pd-2]([Br])([Br])[n+]2[nH]c(C)c(CSCc3ccccc3)c2C)c(C)c1CSCc1ccccc1 | cytotoxicity | – | relative to: IC50 HEK293 over IC50 Jurkat | selectivity index | 1.7
